# Assay results collected from several papers.
# Each numbered part is a random draw from the data of one study; scales do not carry over between parts.

# Series 1
# Target: Phosphate system positive regulatory protein PHO4, full length, GST-tagged (PHO4, Saccharomyces cerevisiae, UniProt P07270, residues 1-312)
# Technique: competition protein-binding microarray
# Molecule type: double-stranded DNA, one strand shown
# Matrix: in vitro
# Concentration: 2 µM
# Notes: whole 60-bp probe, lowest competitor level
# Together with: Cbf1 competitor, 0.05 µM
# Direction: higher = stronger binding
# Shared flanks, not repeated: … GTCTTGATTCGCTTGACGCTGCTG
# Construct (chain): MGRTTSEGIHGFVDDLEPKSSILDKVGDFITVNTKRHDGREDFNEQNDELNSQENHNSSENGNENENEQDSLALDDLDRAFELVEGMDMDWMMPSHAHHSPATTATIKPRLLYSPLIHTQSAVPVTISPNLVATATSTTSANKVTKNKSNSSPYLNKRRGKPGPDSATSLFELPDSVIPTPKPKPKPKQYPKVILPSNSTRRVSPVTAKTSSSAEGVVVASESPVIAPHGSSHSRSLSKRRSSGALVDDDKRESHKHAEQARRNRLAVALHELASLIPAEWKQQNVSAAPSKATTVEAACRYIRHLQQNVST
Oligonucleotide,fluorescence intensity [a.u.]
GATTCCATTCGATTCCATGTGATGATTCCATTCTAT,6390
CTTCTGTAAATTTGTCACCAGACTTGACGCGCCCCG,3330
AAATTACTAAGTTGACTAGTGGGTGACGCCGTATGA,4170
GACAAGCATTTCGACCACGTTTTGTACAAGGAATCC,14700
ATACGCCTTTTCGATGGCGTGCTTTTTAATATGTCT,7540
CGTCCTAGTGATTTTCACGTGCTCTCCATGAGGAAG,14400

# Series 2
# Target: Ras GTPase-activating protein-binding protein 1, RRM domain (G3BP1, Homo sapiens, UniProt Q13283)
# UniProt Q13283, sequence (whole entry, looked up): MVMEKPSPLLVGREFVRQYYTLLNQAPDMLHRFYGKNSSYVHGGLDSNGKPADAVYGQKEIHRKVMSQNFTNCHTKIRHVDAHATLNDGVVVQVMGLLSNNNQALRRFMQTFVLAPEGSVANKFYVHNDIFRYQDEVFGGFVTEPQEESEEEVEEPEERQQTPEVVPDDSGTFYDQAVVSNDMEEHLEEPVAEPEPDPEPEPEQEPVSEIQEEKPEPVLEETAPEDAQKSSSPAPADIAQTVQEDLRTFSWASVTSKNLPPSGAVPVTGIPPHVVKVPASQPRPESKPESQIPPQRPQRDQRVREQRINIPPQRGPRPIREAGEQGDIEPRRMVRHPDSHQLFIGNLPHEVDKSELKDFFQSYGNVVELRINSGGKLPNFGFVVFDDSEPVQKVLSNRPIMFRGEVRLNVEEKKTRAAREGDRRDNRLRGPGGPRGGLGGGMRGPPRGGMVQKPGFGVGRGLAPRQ
# Technique: RNA Bind-n-Seq
# Molecule type: RNA
# Matrix: in vitro
# Concentration: 1 µM
# Notes: whole 134-nt RNA, ends assumed
# Together with: 150 mM KCl
# Baseline: input library
# Direction: higher = stronger binding
Oligonucleotide,log2 enrichment
GGGAGUUCUACAGUCCGACGAUCCUCAAGUCCUGUGCUACACAUCGUAUGUACCGAAUCGGGUGGGUUUGGGUGGGAAAGUAUUAUGUUACGCCGUUCGGAUCUGCACUUCCAUGGAAUUCUCGGGUGUCAAGG,0.679
GGGAGUUCUACAGUCCGACGAUCCACAGAGAACACGCACCCACACAGACACAGAGGGAAGGGGUUGGGAUGGGGACAGGGUGCACAGCAGGGCGGGGUAGGACCCCAGCCCCUUGGAAUUCUCGGGUGUCAAGG,0.0577
GGGAGUUCUACAGUCCGACGAUCAGUCCUGUGCUACACAUCGUAUGUACCGAAUCGGGCCCCCGGCCCCCGGGCCCCCGGAAAGUAUUAUGUUACGCCGUUCGGAUCUGCACUUGGAAUUCUCGGGUGUCAAGG,-0.546
GGGAGUUCUACAGUCCGACGAUCAGUCCUGUGCUACACAUCGUAUGUACCGAAUCGGGGAAAAAGGAAAAAGGAAAAAGGAAAGUAUUAUGUUACGCCGUUCGGAUCUGCACUUGGAAUUCUCGGGUGUCAAGG,-0.036

# Series 3
# Target: Histone acetyltransferase KAT6A, both winged helices, GST fusion (KAT6A, Homo sapiens, UniProt Q92794, residues 1-181)
# Technique: protein binding microarray
# Molecule type: double-stranded DNA, one strand shown
# Matrix: in vitro
# Concentration: not given
# Notes: 8-mer, flanks averaged, mean of 2 arrays, mostly near background
# Baseline: not given
# Direction: higher = stronger binding
# Residues (chain): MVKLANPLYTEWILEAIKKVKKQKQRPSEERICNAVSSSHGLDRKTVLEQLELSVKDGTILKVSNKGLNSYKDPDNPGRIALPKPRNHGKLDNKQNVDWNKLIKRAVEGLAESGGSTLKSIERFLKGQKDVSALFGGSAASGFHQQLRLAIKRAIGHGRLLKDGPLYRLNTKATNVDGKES
Oligonucleotide,E-score
CAACTAGG,-0.144
CCATACCG,0.164
CTAAGTCC,-0.168
ATTTCCTG,-0.19
ATTACTTA,-0.0841
CTTGCCGC,0.303

# Other studies, line by line
Substance,target,test,system,setting,how to read,endpoint,value
"PhoQ, residues 284 288 289 292 302 303 SLSVQF","PhoP, residues 12 14 15 18 19 SGWQI (Escherichia coli, UniProt P23836)","Sort-seq, refers to: YFP reporter",E. coli,"PhoQ-PhoP variant library, together with: 10 µM Mg2+","baseline: high Mg2+ state, higher = stronger signaling",fold induction,5.61

# Repeated from above (series 1):
Oligonucleotide,fluorescence intensity [a.u.]
GATTCCATTCGATTCCATGTGATGATTCCATTCTAT,6390
ATACGCCTTTTCGATGGCGTGCTTTTTAATATGTCT,7540
